Measured values of several laboratories.
Each line is one published result; not all experiments were run side by side. Several values in a cell are separate wells, animals, samples, runs or records.
Organism: Staphylococcus epidermidis

| Structure (SMILES) | assay | system | conditions | MIC |
| --- | --- | --- | --- | --- |
| CCCCCCCC(=O)N(C)[C@H](CO)C(=O)N[C@H](C)C(=O)NCC(=O)N(C)[C@@H]1C(=O)N[C@@H](C)C(=O)N[C@H](C(=O)O)Cc2ccc(O)c(c2)-c2cc1ccc2O | broth microdilution | RP62A wild type | 24 h, 37 °C | > 64 µg/mL |
| CC[C@H](C)[C@@H]1NC(=O)CNC(=O)[C@H](CCCCN)NC(=O)[C@H](C)NC(=O)[C@H](CCC(=O)O)NC(=O)[C@H](Cc2ccccc2)NC(=O)[C@H](CO)NC(=O)[C@H](CC(C)C)NC(=O)[C@H](C(C)C)NC(=O)[C@H](CC(=O)O)NC(=O)[C@@H](NC(=O)[C@@H](NC(=O)[C@@H](N)C(C)C)[C@@H](C)O)CSSC[C@@H]2NC(=O)[C@H](CO)NC(=O)CNC(=O)CNC(=O)[C@H](CCCCN)NC(=O)[C@H](CCCCN)NC(=O)[C@H](CCCNC(=N)N)NC(=O)[C@H](CC(C)C)NC(=O)[C@H](C)NC(=O)[C@H]([C@@H](C)CC)NC(=O)[C@H](C)NC(=O)[C@H](Cc3c[nH]cn3)NC(=O)[C@H](CC(C)C)NC(=O)[C@H](C)NC(=O)[C@H](CSSC[C@@H](C(=O)N[C@H](C(=O)N[C@@H](C)C(=O)N[C@@H](CCCNC(=N)N)C(=O)N[C@@H](CC(N)=O)C(=O)O)C(C)C)NC(=O)[C@H](C(C)C)NC(=O)CNC(=O)[C@H](CC(N)=O)NC(=O)[C@H](CCC(N)=O)NC2=O)NC(=O)[C@H](C)NC(=O)[C@H](CO)NC(=O)[C@H](Cc2c[nH]cn2)NC(=O)[C@H](CC(N)=O)NC(=O)[C@H](C(C)C)NC(=O)[C@H](C)NC1=O | broth microdilution | KCTC 1917 | 16 h, 37 °C | > 100 µM |
| CC[C@H](C)[C@H](NC(=O)[C@@H](Cc1ccccc1)NC)C(=O)N[C@@H](CO)C(=O)N[C@H](CCC(N)=O)C(=O)N[C@@H](C(=O)N[C@H](C(=O)OC[C@H](N)C(=O)N[C@H]1C(=O)N[C@@H](C)C(=O)N[C@@H](C2CCCCC2)C(=O)N[C@@H]([C@@H](C)CC)C(=O)O[C@H]1C)[C@@H](C)CC)[C@@H](C)CC | broth microdilution | ATCC 14990, Mueller-Hinton broth | 16 h, 37 °C | 0.25 µg/mL |
| CN1CCNC1=S.CN1CCNC1=S.O=[N+]([O-])[O-].[Ag+].c1ccc(P(c2ccccc2)c2ccccc2)cc1 | agar dilution | MTCC 435, Mueller Hinton agar | 24 h, 37 °C | 5 to 10 µg/mL and 7 µg/mL |
| CC(C)C[C@H](NC(=O)[C@H](CCCCN)NC(=O)[C@H](C)NC(=O)[C@H](CC(C)C)NC(=O)[C@H](CCCCN)NC(=O)[C@H](CCCCN)NC(=O)[C@H](C)NC(=O)[C@H](CC(C)C)NC(=O)[C@H](CCCCN)NC(=O)[C@H](C)NC(=O)[C@H](CC(C)C)NC(=O)[C@H](CCCCN)NC(=O)[C@H](Cc1c[nH]cn1)NC(=O)CNC(=O)CN)C(=O)N[C@@H](C)C(=O)N[C@@H](CCCCN)C(N)=O |  | ATCC 12228 | 18 to 20 h | 1 µM |
| CC(C)C[C@H](NC(=O)[C@H](CC(N)=O)NC(=O)[C@H](CCCNC(=N)N)NC(=O)[C@@H](CC(C)C)NC(=O)[C@H](Cc1ccc(-c2ccccc2)cc1)NC(=O)[C@H](CC(=O)O)NC(=O)[C@H](CCCCN)NC(=O)[C@@H](CC(C)C)NC(=O)[C@H](CCCNC(=N)N)NC(=O)[C@H](CCC(N)=O)NC(=O)[C@@H](NC(=O)[C@@H](CC(C)C)NC(=O)[C@H](CCCNC(=N)N)NC(=O)[C@H](CCCCN)NC(=O)[C@H](Cc1ccc(-c2ccccc2)cc1)NC(=O)CN)C(C)C)C(=O)N[C@H](C(N)=O)C(C)C | broth microdilution | 1457, Mueller-Hinton broth | overnight, 37 °C | 8 µM |
| CCCCCC/C=C\CCCCCCC[C@@H](O)Cc1cc(O)cc(O)c1 | microbial growth, broth dilution | ATCC35984 | drug-resistant strain | > 64 µg/mL |
| CCCCN1CCNC1=[S+][Ag-3]([O][N+](=O)[O-])([P+](c1ccccc1)(c1ccccc1)c1ccccc1)[P+](c1ccccc1)(c1ccccc1)c1ccccc1 | agar dilution | MTCC 435, Mueller Hinton agar | 24 h, 37 °C | 1000 µg/mL |
| Cc1cccc(C)c1SCC1OC(OC2C(N)CC(N)C(OC3OC(CN)C(O)CC3N)C2O)C(O)C(N)C1O (stereo not shown) |  |  |  | 18.8 µg/mL |
| CC[C@H](C)[C@H](NC(=O)[C@@H](N)C(C)C)C(=O)N[C@@H](Cc1c[nH]cn1)C(=O)N[C@@H](CCCCN)C(=O)N[C@@H](CC(C)C)C(=O)N[C@@H](C)C(=O)N[C@@H](CCCCN)C(=O)N[C@@H](CC(C)C)C(=O)N[C@@H](C)C(=O)N[C@@H](CCCCN)C(=O)N[C@@H](CCCCN)C(=O)N[C@@H](CC(C)C)C(=O)N[C@@H](C)C(=O)N[C@@H](CCCCN)C(=O)N[C@@H](CC(C)C)C(=O)N[C@@H](C)C(=O)N[C@@H](CCCCN)C(N)=O |  | ATCC 12228 | 18 to 20 h | 0.25 µM |
| CC[C@H](C)[C@H](NC(=O)[C@H](NC(=O)[C@@H](CCCNC(=N)N)NC(=O)[C@@H](N)COC(=O)[C@@H](NC(=O)[C@@H](Cc1ccccc1)NC)[C@@H](C)CC)[C@@H](C)CC)C(=O)N[C@@H](CO)C(=O)N[C@H]1C(=O)N[C@@H](C)C(=O)N[C@@H](CC(C)C)C(=O)N[C@@H]([C@@H](C)CC)C(=O)O[C@H]1C | broth microdilution | ATCC 14990, Mueller-Hinton broth | 16 h, 37 °C | 0.0312 to 0.0625 µg/mL |
| CC[C@H](C)[C@H](NC(=O)[C@H](CCCNC(=N)N)NC(=O)[C@H](CCCCN)NC(=O)[C@H](CC(C)C)NC(=O)[C@H](CC(C)C)NC(=O)CNC(=O)[C@H](Cc1c[nH]cn1)NC(=O)[C@H](C)NC(=O)[C@@H](N)CC(=O)O)C(=O)N[C@@H](CCCCN)C(=O)N[C@H](C(=O)N[C@@H](CC(C)C)C(=O)N[C@@H](CC(C)C)C(N)=O)[C@@H](C)O |  | ATCC 12228 | 18 to 20 h | 16 µM |
| CC[C@H](C)[C@@H]1NC(=O)CNC(=O)[C@H](CCCCN)NC(=O)[C@H](C)NC(=O)[C@H](CCC(=O)O)NC(=O)[C@H](Cc2ccccc2)NC(=O)[C@H](CO)NC(=O)[C@H](CC(C)C)NC(=O)[C@H](C(C)C)NC(=O)[C@H](CC(=O)O)NC(=O)[C@@H](NC(=O)[C@@H](NC(=O)[C@@H](N)C(C)C)[C@@H](C)O)CSSC[C@@H]2NC(=O)[C@H](CO)NC(=O)CNC(=O)CNC(=O)[C@H](CCCCN)NC(=O)[C@H](CCCCN)NC(=O)[C@H](CCCNC(=N)N)NC(=O)[C@H](CC(C)C)NC(=O)[C@H](C)NC(=O)[C@H]([C@@H](C)CC)NC(=O)[C@@H]3CSSC[C@@H](C(=O)N[C@@H](CCCNC(=N)N)C(=O)N[C@@H](CC(N)=O)C(=O)O)NC(=O)[C@H](C(C)C)NC(=O)[C@H](CSSC[C@H](NC(=O)[C@H](C)NC(=O)[C@H](CO)NC(=O)[C@H](Cc4c[nH]cn4)NC(=O)[C@H](CC(N)=O)NC(=O)[C@H](C(C)C)NC(=O)[C@H](C)NC1=O)C(=O)N[C@@H](C)C(=O)N[C@@H](CC(C)C)C(=O)N[C@@H](Cc1c[nH]cn1)C(=O)N3)NC(=O)[C@H](C(C)C)NC(=O)CNC(=O)[C@H](CC(N)=O)NC(=O)[C@H](CCC(N)=O)NC2=O | broth microdilution | KCTC 1917 | 16 h, 37 °C | 1.6 µM |
| CC(C)C[C@H](NC(=O)CNC(=O)[C@H](C)NC(=O)[C@H](CCCNC(=N)N)NC(=O)[C@H](Cc1c[nH]cn1)NC(=O)CNC(=O)CN)C(=O)N[C@@H](CCC(N)=O)C(=O)N[C@@H](Cc1ccccc1)C(=O)N1CCC[C@H]1C(=O)N[C@H](C(=O)NCC(=O)N[C@@H](CCCNC(=N)N)C(=O)N[C@H](C(=O)N[C@@H](Cc1c[nH]cn1)C(=O)N[C@@H](CCCNC(=N)N)C(=O)N[C@@H](CC(C)C)C(=O)N[C@@H](CC(C)C)C(=O)N[C@@H](CCCNC(=N)N)C(=O)N[C@@H](CCCCN)C(N)=O)C(C)C)C(C)C |  | ATCC 12228 | 18 to 20 h | 16 µM |
| CCCCCCCCCCCCC[C@@H](O)Cc1cc(O)cc(O)c1 | microbial growth, broth dilution | ATCC35984 | drug-resistant strain | 32 µg/mL |
| CC[C@H](C)[C@H](NC(=O)[C@@H](Cc1ccccc1)NC)C(=O)N[C@@H](CO)C(=O)N[C@H](CCC(N)=O)C(=O)N[C@@H](C(=O)N[C@H](C(=O)N[C@@H](CO)C(=O)N[C@H]1C(=O)N[C@@H](C)C(=O)N[C@@H](C2CCCCC2)C(=O)N[C@@H]([C@@H](C)CC)C(=O)O[C@H]1C)[C@@H](C)CC)[C@@H](C)CC | broth microdilution | ATCC 14990, Mueller-Hinton broth | 16 h, 37 °C | 0.5 µg/mL |
